Results gathered from unrelated publications.
Lines come from different studies, so protocols differ.
Organism: SARS-CoV-2

SMILES | test | system | setting | scale | quantity | value
CC[C@H](C)[C@H](NC(=O)CNC(=O)[C@H](CO)NC(=O)CNC(=O)[C@H](CSSC[C@H](NC(C)=O)C(=O)NCC(=O)N[C@@H](CO)C(=O)NCC(=O)N[C@H](C(=O)N[C@@H](CO)C(=O)NCC(=O)N[C@H](C(=O)N[C@@H](CC(N)=O)C(=O)N[C@@H](C)C(=O)N[C@@H](CO)C(=O)N[C@H](C(=O)N[C@H](C(=O)N[C@@H](CC(N)=O)C(=O)N[C@H](C(=O)N[C@@H](CCC(N)=O)C(=O)N[C@@H](CCCCN)C(=O)N[C@@H](CCC(=O)O)C(=O)N[C@H](C(=O)N[C@@H](CCC(=O)O)C(=O)N[C@@H](CCCNC(=N)N)C(=O)N[C@@H](CC(C)C)C(=O)N[C@@H](CC(N)=O)C(=O)N[C@@H](CCCCN)C(=O)N[C@H](C(=O)N[C@@H](C)C(=O)N[C@@H](CCCCN)C(=O)N[C@@H](CCC(=O)O)C(=O)N[C@@H](CC(C)C)C(=O)N[C@@H](CC(N)=O)C(=O)N[C@@H](CCCCN)C(=O)N[C@@H](CO)C(=O)N[C@@H](CC(C)C)C(=O)N[C@H](C(=O)N[C@@H](CC(=O)O)C(=O)N[C@@H](CC(C)C)C(=O)N[C@@H](CCC(N)=O)C(=O)N[C@@H](CCC(=O)O)C(N)=O)[C@@H](C)CC)C(C)C)[C@@H](C)CC)[C@@H](C)CC)C(C)C)C(C)C)[C@@H](C)CC)[C@@H](C)CC)NC(C)=O)C(=O)N[C@@H](CO)C(=O)NCC(=O)N[C@H](C(=O)N[C@@H](CC(N)=O)C(=O)N[C@@H](C)C(=O)N[C@@H](CO)C(=O)N[C@H](C(=O)N[C@H](C(=O)N[C@@H](CC(N)=O)C(=O)N[C@H](C(=O)N[C@@H](CCC(N)=O)C(=O)N[C@@H](CCCCN)C(=O)N[C@@H](CCC(=O)O)C(=O)N[C@H](C(=O)N[C@@H](CCC(=O)O)C(=O)N[C@@H](CCCNC(=N)N)C(=O)N[C@@H](CC(C)C)C(=O)N[C@@H](CC(N)=O)C(=O)N[C@@H](CCCCN)C(=O)N[C@H](C(=O)N[C@@H](C)C(=O)N[C@@H](CCCCN)C(=O)N[C@@H](CCC(=O)O)C(=O)N[C@@H](CC(C)C)C(=O)N[C@@H](CC(N)=O)C(=O)N[C@@H](CCCCN)C(=O)N[C@@H](CO)C(=O)N[C@@H](CC(C)C)C(=O)N[C@H](C(=O)N[C@@H](CC(=O)O)C(=O)N[C@@H](CC(C)C)C(=O)N[C@@H](CCC(N)=O)C(=O)N[C@@H](CCC(=O)O)C(N)=O)[C@@H](C)CC)C(C)C)[C@@H](C)CC)[C@@H](C)CC)C(C)C)C(C)C)[C@@H](C)CC | viral replication | VeroE6/TMPRSS2, ancestral Wuhan |  | reference: compound over corresponding monomer | IC50 ratio | 2.52
CCCC/C=C/C(=O)N[C@@H](Cc1csc2ccccc12)C(=O)N[C@H]1COC(=O)[C@@H]2C[C@@H](C)CN2C(=O)[C@H](C)NC(=O)[C@@H]2CCCCN2C(=O)[C@@H]2CCCN2C1=O |  |  | concentration not given | reference: DMSO | viral RNA release reduction | 100 fold
C[C@@H]1O[C@@H](n2c3ccccc3c3c4c(c5c6ccccc6[nH]c5c32)CNC4=O)C[C@@H](N)[C@H]1O | viral replication, item: dsRNA | Calu-3, Omicron BA.1 |  |  | EC50 | 1.6 µM
Cc1oc2nc1C(=O)N[C@](C)(C(=O)OC(C)C)c1nc(c(C)o1)C(=O)N[C@](C)(C(=O)OC(C)C)c1nc(c(C)o1)C(=O)N[C@]2(C)C(=O)OC(C)C | viral adsorption | Vero E6, NRC-03-nhCoV | 20 µM |  | inhibition | 52%
Cc1ccc(N2CC(N3CCC(C)(O)CC3)C2)cc1C(=O)NC1(c2ccc3c4c(cccc24)C(=O)N3C)CC1 | viral replication | Vero C1008, XBB.1 | 0.1543 µM |  | inhibition | 90%
C#CCC(C)OP(=O)(O)Oc1c2c(c(OP(=O)(O)OC(C)CC#C)c3c1C1CC3c3cc4c(cc31)C1CC4c3ccccc31)C1CC2c2cc3c(cc21)C1CC3c2ccccc21 (centres unmarked) | viral replication | Caco-2 |  |  | IC50 | 97.4 µM
Cc1oc2nc1C(=O)N[C@](C)(C(=O)NCCc1ccccc1)c1nc(c(C)o1)C(=O)N[C@](C)(C(=O)NCCc1ccccc1)c1nc(c(C)o1)C(=O)N[C@]2(C)C(=O)NCCc1ccccc1 | virucidal activity | Vero E6, NRC-03-nhCoV | 10 µM |  | inhibition | 58%
Cc1ccc(N2CCN(C)CC2)cc1C(=O)NC1(c2ccc3c4c(cccc24)CC3)CC1 | viral replication | Vero C1008, XBB.1 | 0.01715 µM |  | inhibition | 0%
Oc1ccc(Br)cc1-c1nc2cc(C(F)(F)F)ccc2s1 |  |  | concentration not given | reference: DMSO | viral RNA release reduction | 1000 fold
Cc1ccc(N2CC(N3CCC(C)(O)CC3)C2)cc1C(=O)NC1(c2ccc3c4c(cccc24)CC3)CC1 | viral replication | Vero C1008, wild type | 0.05144 µM |  | inhibition | 0%
CC(C)CC(C(=O)N1CC2(CC1C#N)C(=O)Nc1ccccc12)N(C)C(=O)c1cc2c(F)cc(F)c(F)c2[nH]1 (centres unmarked) | viral replication, infectious virus | Vero E6 | 0.3333 µM |  | inhibition | 103%
Cc1oc2nc1C(=O)N[C@](C)(C(=O)O)c1nc(c(C)o1)C(=O)N[C@](C)(C(=O)O)c1nc(c(C)o1)C(=O)N[C@]2(C)C(=O)O | virucidal activity | Vero E6, NRC-03-nhCoV | 10 µM |  | inhibition | 28%
Cc1ccc(N2CC3CC(C2)N3)cc1C(=O)NC1(c2ccc3c4c(cccc24)C(=O)N3C)CC1 | viral replication | Vero C1008, Omicron BA.5 | 12.5 µM |  | inhibition | 100%
CC(C)(C)NC(=O)[C@@H](c1cccnc1)N(C(=O)c1ccco1)c1ccc(C(C)(C)C)cc1 | RT-qPCR, item: viral RNA | Vero | 1 µM | higher means less virus | Ct value | 23.4 cycles
